Results pooled from the literature.
Each numbered part is a random draw from the data of one study; scales do not carry over between parts.
Sequence of UniProt Q9HC98 (whole entry, looked up): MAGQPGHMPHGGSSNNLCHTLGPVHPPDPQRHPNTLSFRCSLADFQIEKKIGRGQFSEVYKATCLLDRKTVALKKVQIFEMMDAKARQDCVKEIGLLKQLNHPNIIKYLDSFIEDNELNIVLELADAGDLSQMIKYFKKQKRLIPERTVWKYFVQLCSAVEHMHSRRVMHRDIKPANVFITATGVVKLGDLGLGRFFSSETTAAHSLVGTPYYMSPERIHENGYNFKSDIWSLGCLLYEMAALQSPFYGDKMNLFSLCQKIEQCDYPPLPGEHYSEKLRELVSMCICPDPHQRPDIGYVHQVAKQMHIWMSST
Sequence of UniProt O00222 (whole entry, looked up): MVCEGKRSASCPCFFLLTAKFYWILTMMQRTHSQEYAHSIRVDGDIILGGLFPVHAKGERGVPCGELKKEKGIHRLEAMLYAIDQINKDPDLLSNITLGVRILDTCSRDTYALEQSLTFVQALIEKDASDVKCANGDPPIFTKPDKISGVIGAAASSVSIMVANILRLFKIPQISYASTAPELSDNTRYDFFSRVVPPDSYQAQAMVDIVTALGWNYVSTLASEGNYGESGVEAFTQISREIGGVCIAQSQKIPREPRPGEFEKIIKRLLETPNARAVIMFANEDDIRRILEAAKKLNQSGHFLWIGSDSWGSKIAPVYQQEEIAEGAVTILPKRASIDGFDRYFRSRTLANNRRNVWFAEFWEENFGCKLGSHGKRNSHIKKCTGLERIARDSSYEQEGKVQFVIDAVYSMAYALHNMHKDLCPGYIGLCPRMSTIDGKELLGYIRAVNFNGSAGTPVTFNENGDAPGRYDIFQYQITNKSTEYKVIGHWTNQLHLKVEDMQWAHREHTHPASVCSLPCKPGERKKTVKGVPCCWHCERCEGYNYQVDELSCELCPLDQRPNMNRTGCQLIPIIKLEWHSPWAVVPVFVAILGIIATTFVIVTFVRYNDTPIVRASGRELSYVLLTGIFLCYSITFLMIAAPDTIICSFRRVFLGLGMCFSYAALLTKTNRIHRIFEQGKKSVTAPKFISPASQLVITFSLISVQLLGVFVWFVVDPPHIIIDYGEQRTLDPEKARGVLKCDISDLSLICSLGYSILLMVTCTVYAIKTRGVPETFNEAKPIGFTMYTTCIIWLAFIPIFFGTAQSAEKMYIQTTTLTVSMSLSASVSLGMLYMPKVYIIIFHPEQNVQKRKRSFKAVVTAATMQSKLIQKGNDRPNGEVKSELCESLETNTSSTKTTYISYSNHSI
Sequence of UniProt Q16832 (whole entry, looked up): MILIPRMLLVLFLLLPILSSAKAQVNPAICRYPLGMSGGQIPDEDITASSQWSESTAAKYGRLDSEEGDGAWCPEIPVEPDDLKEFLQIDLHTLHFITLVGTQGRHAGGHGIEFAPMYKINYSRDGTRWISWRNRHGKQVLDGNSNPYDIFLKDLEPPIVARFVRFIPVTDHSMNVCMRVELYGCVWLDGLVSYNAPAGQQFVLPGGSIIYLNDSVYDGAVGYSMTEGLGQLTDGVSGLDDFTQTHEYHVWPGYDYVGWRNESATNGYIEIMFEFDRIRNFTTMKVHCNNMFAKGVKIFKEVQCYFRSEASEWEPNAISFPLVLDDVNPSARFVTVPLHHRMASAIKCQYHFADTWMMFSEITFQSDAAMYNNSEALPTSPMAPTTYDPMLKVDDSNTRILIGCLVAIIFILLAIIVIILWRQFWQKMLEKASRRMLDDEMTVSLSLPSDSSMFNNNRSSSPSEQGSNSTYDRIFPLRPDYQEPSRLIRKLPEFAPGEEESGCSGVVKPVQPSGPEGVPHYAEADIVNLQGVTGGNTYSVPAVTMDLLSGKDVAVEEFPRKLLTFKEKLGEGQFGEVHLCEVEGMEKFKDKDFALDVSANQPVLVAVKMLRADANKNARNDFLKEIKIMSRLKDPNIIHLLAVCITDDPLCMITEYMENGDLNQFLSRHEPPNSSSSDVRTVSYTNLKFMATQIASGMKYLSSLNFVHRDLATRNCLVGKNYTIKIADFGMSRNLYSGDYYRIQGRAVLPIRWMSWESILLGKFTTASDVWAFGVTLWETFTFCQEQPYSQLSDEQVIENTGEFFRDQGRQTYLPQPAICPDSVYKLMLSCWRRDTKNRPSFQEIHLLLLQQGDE
Sequence of UniProt P11362 (whole entry, looked up): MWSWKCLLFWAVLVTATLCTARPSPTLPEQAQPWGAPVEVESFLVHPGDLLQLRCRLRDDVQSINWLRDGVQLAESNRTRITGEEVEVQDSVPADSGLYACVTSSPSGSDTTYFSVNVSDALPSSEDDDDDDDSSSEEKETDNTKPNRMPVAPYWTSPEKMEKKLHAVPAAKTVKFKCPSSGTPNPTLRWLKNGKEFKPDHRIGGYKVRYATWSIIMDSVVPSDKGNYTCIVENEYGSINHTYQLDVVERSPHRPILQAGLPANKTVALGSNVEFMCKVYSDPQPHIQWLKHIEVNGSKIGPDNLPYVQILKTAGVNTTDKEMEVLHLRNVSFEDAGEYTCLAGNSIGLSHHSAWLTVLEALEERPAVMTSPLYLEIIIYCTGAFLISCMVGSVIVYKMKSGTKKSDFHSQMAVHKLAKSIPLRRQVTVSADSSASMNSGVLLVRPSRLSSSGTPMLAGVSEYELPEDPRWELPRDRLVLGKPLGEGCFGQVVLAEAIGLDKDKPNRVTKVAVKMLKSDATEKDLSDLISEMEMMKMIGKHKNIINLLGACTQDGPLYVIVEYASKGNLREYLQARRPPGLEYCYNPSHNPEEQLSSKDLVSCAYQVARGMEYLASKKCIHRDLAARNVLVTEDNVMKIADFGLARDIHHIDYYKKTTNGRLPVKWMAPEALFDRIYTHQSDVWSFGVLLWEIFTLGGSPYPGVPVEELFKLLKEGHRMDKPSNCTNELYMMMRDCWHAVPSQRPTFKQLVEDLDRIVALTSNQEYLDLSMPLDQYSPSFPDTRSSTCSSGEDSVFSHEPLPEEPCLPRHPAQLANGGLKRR
Sequence of UniProt P49137 (whole entry, looked up): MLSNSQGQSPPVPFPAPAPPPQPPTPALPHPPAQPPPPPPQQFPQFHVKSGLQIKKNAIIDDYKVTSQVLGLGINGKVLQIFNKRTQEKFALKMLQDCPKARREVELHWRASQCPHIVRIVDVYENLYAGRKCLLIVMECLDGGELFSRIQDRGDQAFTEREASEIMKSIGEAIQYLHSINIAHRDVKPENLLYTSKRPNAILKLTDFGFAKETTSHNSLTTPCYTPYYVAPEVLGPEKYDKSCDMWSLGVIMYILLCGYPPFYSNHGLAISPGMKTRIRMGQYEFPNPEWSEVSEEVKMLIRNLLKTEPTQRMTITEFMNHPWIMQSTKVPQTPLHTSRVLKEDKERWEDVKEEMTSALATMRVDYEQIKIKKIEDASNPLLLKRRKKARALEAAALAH
Sequence of UniProt P78356 (whole entry, looked up): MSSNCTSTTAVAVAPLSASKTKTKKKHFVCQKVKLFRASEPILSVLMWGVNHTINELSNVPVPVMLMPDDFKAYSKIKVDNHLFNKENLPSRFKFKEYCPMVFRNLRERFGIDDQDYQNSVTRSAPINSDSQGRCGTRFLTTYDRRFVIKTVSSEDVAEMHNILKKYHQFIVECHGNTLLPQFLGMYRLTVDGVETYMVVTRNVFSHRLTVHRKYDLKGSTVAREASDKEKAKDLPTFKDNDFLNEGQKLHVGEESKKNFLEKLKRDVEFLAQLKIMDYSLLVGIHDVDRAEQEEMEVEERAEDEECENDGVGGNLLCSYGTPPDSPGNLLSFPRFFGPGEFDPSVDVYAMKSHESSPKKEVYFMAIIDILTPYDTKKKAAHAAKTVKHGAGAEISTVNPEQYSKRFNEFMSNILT
Sequence of UniProt P27361 (whole entry, looked up): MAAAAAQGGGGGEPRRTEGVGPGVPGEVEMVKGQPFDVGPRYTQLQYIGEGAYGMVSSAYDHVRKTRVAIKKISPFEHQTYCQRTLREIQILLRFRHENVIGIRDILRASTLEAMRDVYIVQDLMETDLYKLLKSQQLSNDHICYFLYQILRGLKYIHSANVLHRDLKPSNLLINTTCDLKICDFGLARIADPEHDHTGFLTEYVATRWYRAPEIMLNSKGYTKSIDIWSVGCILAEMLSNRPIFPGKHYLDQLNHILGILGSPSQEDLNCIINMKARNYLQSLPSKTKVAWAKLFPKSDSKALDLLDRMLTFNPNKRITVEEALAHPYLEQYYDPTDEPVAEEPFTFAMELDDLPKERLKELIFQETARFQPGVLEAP
Sequence of UniProt P32302 (whole entry, looked up): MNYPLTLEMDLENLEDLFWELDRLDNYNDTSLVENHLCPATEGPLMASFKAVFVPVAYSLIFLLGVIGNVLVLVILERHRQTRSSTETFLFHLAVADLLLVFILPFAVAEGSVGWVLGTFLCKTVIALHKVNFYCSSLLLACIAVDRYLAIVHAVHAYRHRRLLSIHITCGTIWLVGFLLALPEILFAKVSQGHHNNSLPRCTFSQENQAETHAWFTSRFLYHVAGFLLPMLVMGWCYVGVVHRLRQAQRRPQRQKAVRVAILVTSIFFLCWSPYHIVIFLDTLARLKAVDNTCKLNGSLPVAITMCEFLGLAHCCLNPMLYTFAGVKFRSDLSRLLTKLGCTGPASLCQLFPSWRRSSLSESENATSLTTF

Series 1
Target: Calcium/calmodulin-dependent protein kinase type II subunit alpha (CAMK2A, Homo sapiens, UniProt Q9UQM7)
Sequence of UniProt Q9UQM7 (whole entry, looked up): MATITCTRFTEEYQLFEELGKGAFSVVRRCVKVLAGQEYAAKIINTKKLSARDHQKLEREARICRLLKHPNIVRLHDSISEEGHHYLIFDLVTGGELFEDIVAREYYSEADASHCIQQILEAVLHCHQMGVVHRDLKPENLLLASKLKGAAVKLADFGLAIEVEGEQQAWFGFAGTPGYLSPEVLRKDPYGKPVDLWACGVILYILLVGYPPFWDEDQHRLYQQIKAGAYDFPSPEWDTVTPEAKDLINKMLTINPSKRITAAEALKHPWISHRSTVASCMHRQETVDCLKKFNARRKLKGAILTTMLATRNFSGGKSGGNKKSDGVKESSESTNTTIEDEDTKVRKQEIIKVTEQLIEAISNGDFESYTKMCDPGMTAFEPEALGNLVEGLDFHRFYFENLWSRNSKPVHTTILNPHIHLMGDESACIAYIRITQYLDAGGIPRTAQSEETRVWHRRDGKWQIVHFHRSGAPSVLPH
Observed: enzyme activity
Action: inhibitor
Tested at: 10 µM
Measurement: inhibition
Compound = O=c1c(O)c(-c2ccc(O)cc2)oc2cc(O)ccc12; result = 57%
Compound = CCCCC/C=C/C(=O)O; result = -7%
Compound = COc1c(C)c(O)cc2[o+]c(-c3ccccc3)ccc12; result = -18%
Compound = COc1cc(/C=C/C(=O)N2CCN(CC(=O)N3CCCC3)CC2)cc(OC)c1OC; result = 1%
Compound = COc1ccc2c(c1)C(=O)N(CCc1ccc(S(=O)(=O)NC(=O)NC3CCCCC3)cc1)C(=O)C2(C)C; result = -10%
Compound = CN1C(C(=O)Nc2ccccn2)=C(O)c2ccccc2S1(=O)=O; result = 2%
Compound = CC(C)OC(=O)C(C(=O)OC(C)C)=C1SC=CS1; result = 4%
Compound = CCCCC/C=C/C(=O)CCc1ccc(O)c(OC)c1; result = -12%
Compound = CC(=O)Nc1ccn([C@@H]2O[C@H](CO)[C@@H](O)[C@H]2O)c(=O)n1; result = -27%
Compound = C=C1C[C@@]2(O)O[C@@]3(CC2=C(C)C)[C@@H](C)CC[C@@H]13; result = -16%
Compound = CC(=O)O[C@@H]1C[C@H](C)CC[C@H]1C(C)C; result = 13%
Compound = CC(C)(C(=O)O)c1ccc(C(O)CCCN2CCC(C(O)(c3ccccc3)c3ccccc3)CC2)cc1 (stereo not drawn); result = -14%
Compound = N[C@H](C=O)[C@@H](O)[C@H](O)[C@H](O)CO; result = -24%
Compound = COc1ccc2cc([C@H](C)C(=O)O)ccc2c1; result = -2%
Compound = CC(=O)O[C@@H]1C[C@@]23C[C@@]24CC[C@H](O[C@@H]2OC[C@@H](O)[C@H](O)[C@H]2O)C(C)(C)[C@@H]4CC[C@H]3[C@]2(C)C[C@@H]3O[C@]4(C[C@@H](C)[C@@H]3[C@@]12C)OC[C@@]1(C)O[C@@H]41; result = -4%

Series 2
Compound: CN(c1ccnc(CNc2nc(Nc3ccc4c(c3)CC(=O)N4)ncc2C(F)(F)F)n1)S(C)(=O)=O
Technique: competition with immobilised ligand
Tested at: 1 µM
Measurement: remaining binding
target = Ribosomal protein S6 kinase alpha-3, C-terminal kinase domain (RPS6KA3, Homo sapiens, UniProt P51812); test = cell-free assay; result = 85%
target = MAPKAPK5 (Homo sapiens, UniProt Q8IW41); test = cell-free assay; result = 94%
target = NEK6 (Homo sapiens, UniProt Q9HC98); test = cell-free assay; result = 84%
target = PDGFRB (Homo sapiens, UniProt P09619); test = cell-free assay; result = 69%
target = WEE2 (Homo sapiens, UniProt P0C1S8); test = cell-free assay; result = 28%
target = NEK7 (Homo sapiens, UniProt Q8TDX7); test = cell-free assay; result = 68%
target = STK39 (Homo sapiens, UniProt Q9UEW8); test = cell-free assay; result = 100%
target = CILK1 (Homo sapiens, UniProt Q9UPZ9); test = cell-free assay; result = 100%
target = TNNI3K (Homo sapiens, UniProt Q59H18); test = cell-free assay; result = 73%
target = FLT3 (Homo sapiens, UniProt P36888); test = cell-free assay; result = 23%
target = CLK2 (Homo sapiens, UniProt P49760); test = binding; result = 0%
target = PIP4K2B (Homo sapiens, UniProt P78356); test = cell-free assay; result = 4.8%
target = MAP2K6 (Homo sapiens, UniProt P52564); test = cell-free assay; result = 83%
target = RET (Homo sapiens, UniProt P07949, M918T); test = cell-free assay; result = 50%
target = EPHB2 (Homo sapiens, UniProt P29323); test = cell-free assay; result = 81%
target = DDR2 (Homo sapiens, UniProt Q16832); test = cell-free assay; result = 94%
target = DCLK2 (Homo sapiens, UniProt Q8N568); test = cell-free assay; result = 90%
target = BLK (Homo sapiens, UniProt P51451); test = cell-free assay; result = 40%
target = HIPK3 (Homo sapiens, UniProt Q9H422); test = cell-free assay; result = 48%
target = PRKG2 (Homo sapiens, UniProt Q13237); test = cell-free assay; result = 68%
target = GAK (Homo sapiens, UniProt O14976); test = cell-free assay; result = 66%
target = Macrophage colony-stimulating factor 1 receptor, autoinhibited (CSF1R, Homo sapiens, UniProt P07333); test = cell-free assay; result = 100%
target = INSRR (Homo sapiens, UniProt P14616); test = cell-free assay; result = 100%
target = FLT3 (Homo sapiens, UniProt P36888, D835V); test = cell-free assay; result = 1.5%
target = LTK (Homo sapiens, UniProt P29376); test = cell-free assay; result = 100%

Series 3
Structure (SMILES): O=C(NC(NC(=S)Nc1ccc(F)c([N+](=O)[O-])c1)C(Cl)(Cl)Cl)C(c1ccccc1)c1ccccc1 (stereo not drawn)
Observed: enzyme activity
Action: inhibitor
Tested at: 0.5 µM
Relative to: control
Measurement: remaining activity
target = NEK1 (Homo sapiens, UniProt Q96PY6); result = 101%
target = WEE1 (Homo sapiens, UniProt P30291); result = 91.8%
target = MST1R (Homo sapiens, UniProt Q04912); result = 102%
target = TBK1 (Homo sapiens, UniProt Q9UHD2); result = 98.7%
target = MAPK3 (Homo sapiens, UniProt P27361); result = 120%
target = GRK7 (Homo sapiens, UniProt Q8WTQ7); result = 101%
target = MAPKAPK2 (Homo sapiens, UniProt P49137); result = 96.3%
target = FGFR1 (Homo sapiens, UniProt P11362); result = 97.7%
target = TAOK2 (Homo sapiens, UniProt Q9UL54); result = 103%
target = NEK6 (Homo sapiens, UniProt Q9HC98); result = 109%
target = MERTK (Homo sapiens, UniProt Q12866); result = 96.2%
target = MAP3K14 (Homo sapiens, UniProt Q99558); result = 92.1%
target = MAP3K5 (Homo sapiens, UniProt Q99683); result = 97.1%
target = LCK (Homo sapiens, UniProt P06239); result = 91.8%
target = RPS6KA2 (Homo sapiens, UniProt Q15349); result = 101%
target = CSNK1G2 (Homo sapiens, UniProt P78368); result = 98.3%
target = JAK3 (Homo sapiens, UniProt P52333); result = 110%
target = MAP2K2 (Homo sapiens, UniProt P36507); result = 82.3%
target = FRK (Homo sapiens, UniProt P42685); result = 103%
target = CSNK1G3 (Homo sapiens, UniProt Q9Y6M4); result = 87.7%
target = FGFR3 (Homo sapiens, UniProt P22607); result = 96.8%
target = ACVR1B (Homo sapiens, UniProt P36896); result = 106%
target = GSK3B (Homo sapiens, UniProt P49841); result = 109%
target = TEK (Homo sapiens, UniProt Q02763); result = 97.8%
target = EPHA3 (Homo sapiens, UniProt P29320); result = 105%

Series 4
SMILES: N=C(N)NC(=O)c1cnn(-c2cccc3ncccc23)c1C1CC1
Observed: β-arrestin recruitment
Action: agonist
Technique: PRESTO-Tango
Tested at: 10 µM
Relative to: untreated
Measurement: fold over basal
target = DRD3 (Homo sapiens, UniProt P35462); result = 2.14
target = CXCR4 (Homo sapiens, UniProt P61073); result = 0.64
target = HTR1D (Homo sapiens, UniProt P28221); result = 1.01
target = GRM8 (Homo sapiens, UniProt O00222); result = 1.1 fold
target = Leukotriene B4 receptor 2, isoform b (LTB4R2, Homo sapiens, UniProt Q9NPC1); result = 1
target = GPER1 (Homo sapiens, UniProt Q99527); result = 1.41
target = GABBR1 (Homo sapiens, UniProt Q9UBS5); result = 0.96 fold
target = CXCR5 (Homo sapiens, UniProt P32302); result = 0.83
target = ADRA1D (Homo sapiens, UniProt P25100); result = 1.06
target = CMKLR2 (Homo sapiens, UniProt P46091); result = 1.01
